# Measurements of several laboratories.
# Compare with care: the assays were run in different laboratories. “And” joins repeats or separate records; there may be more than shown. ± marks the error that the study gave.
Structure (SMILES),test,test system,conditions,how to read,quantity,result
CC[C@H](C)[C@@H]1NC(=O)[C@H](CCCNC(=N)N)NC(=O)C[C@@H](c2cccc3ccccc23)NC(=O)[C@@H]2CSSC[C@H](NC(=O)C[C@@H](c3cccc4ccccc34)NC(=O)[C@H](CCCNC(=N)N)NC(=O)[C@@H]3CCCN3C(=O)[C@@H]3CCCN3C1=O)C(=O)N[C@@H](Cc1ccccc1)C(=O)N1CCC[C@H]1C(=O)N[C@@H](CC(=O)O)C(=O)N[C@@H](CC(=O)O)C(=O)N[C@@H](Cc1ccccc1)C(=O)N2,two-compartment model,athymic nude mice (Foxn1),"intravenous, 6 mg/kg",,CL,0.0025 mL/min
CN1CC[C@@H](c2c(O)cc(O)c3c(=O)cc(-c4ccc(C(F)(F)F)cc4Cl)oc23)[C@@H]1CO,refers to: Thrombocytopenia,relapsed AML,"oral, 100 mg, grade 3-4, intermittent dosing",,patients with adverse event,33.3%
CO[C@H]1C[C@@H]2CC[C@@H](C)[C@@](O)(O2)C(=O)C(=O)N2CCCC[C@H]2C(=O)O[C@H]([C@H](C)C[C@@H]2CC[C@@H](OC(=O)NCCOCCOCCOCCOCCOCCOCCOCCOCCC(=O)N3CCc4cc(Cn5nc(-c6ccc7oc(N)nc7c6)c6c(N)ncnc65)ccc4C3)[C@H](OC)C2)C[C@@H](O)[C@H](C)/C=C(\C)[C@@H](O)[C@@H](OC)C(=O)[C@H](C)C[C@H](C)/C=C/C=C/C=C/1C,dose-escalation trial,patients with advanced solid tumours,"intravenous, 1.6 mg/3 mg weekly, any grade",,decreased appetite TEAE incidence,60%
O=C1Nc2cc3[nH]nc(-c4ccncc4)c3cc2CN1Cc1ccccc1,CTCAE v4.03,advanced solid tumour patients,"intravenous, 0.9 mg/kg, schedules 1/2",,patients with abdominal pain,100%
CC[C@H](C)[C@H](NC(=O)[C@H](Cc1ccccc1)NC(=O)[C@H](CCC(=O)O)NC(=O)[C@H](CCCNC(=N)N)NC(=O)[C@H](C)NC(=O)[C@H](C)NC(=O)[C@H](CCC(N)=O)NC(=O)[C@H](CCC(=O)O)NC(=O)[C@H](CCC(=O)O)NC(=O)[C@H](CC(C)C)NC(=O)[C@H](Cc1ccc(O)cc1)NC(=O)[C@H](CO)NC(=O)[C@H](CO)NC(=O)[C@@H](NC(=O)[C@H](CC(=O)O)NC(=O)[C@H](CO)NC(=O)[C@@H](NC(=O)[C@H](Cc1ccccc1)NC(=O)[C@@H](NC(=O)CNC(=O)[C@H](CCC(=O)O)NC(=O)[C@H](C)NC(=O)CCc1cnc[nH]1)[C@@H](C)O)[C@@H](C)O)C(C)C)C(=O)N[C@@H](C)C(=O)N[C@@H](Cc1c[nH]c2ccccc12)C(=O)N[C@@H](CC(C)C)C(=O)N[C@H](C(=O)N[C@@H](CCCNC(=N)N)C(=O)NCC(=O)N[C@@H](CCCNC(=N)N)C(=O)N[C@@H](CCCCNC(=O)COCCOCCNC(=O)COCCOCCNC(=O)CC[C@H](NC(=O)CCCCCCCCCCCCCCCCC(=O)O)C(=O)O)C(=O)NCC(=O)NCC(=O)N[C@@H](CO)C(=O)N[C@@H](CCCCNC(=O)[C@H](CCCCNc1c(NCCCCCN(O)C(=O)CCC(=O)NCCCCCN(O)C(=O)CCC(=O)NCCCCCN(O)C(C)=O)c(=O)c1=O)Nc1c(NCCCCCN(O)C(=O)CCC(=O)NCCCCCN(O)C(=O)CCC(=O)NCCCCCN(O)C(C)=O)c(=O)c1=O)C(=O)O)C(C)C [zirconium-89 labelled],ex vivo gamma counting,"Sprague-Dawley rat, male, duodenum","intravenous, 1 nmol, 24 h",,tissue uptake,0.196 %ID/g and 0.188 %ID/g and 0.193 %ID/g and 0.218 %ID/g and 0.192 %ID/g
COc1ccc2nc3cc(Cl)ccc3c(Nc3cc(CN4CCCC4)c(O)c(CN4CCCC4)c3)c2n1,,"mouse, blood","oral, 57 mg/kg, tolerability, mean",,haematocrit,29.1%
C[C@@H](NC(=O)N1C(=O)[C@H](Cc2ccnc(N)c2)[C@H]1C(=O)O)C1CCCCC1,,healthy Chinese adult volunteers,"continuous intravenous infusion, dose not given, 5.0 days, CTCAE 5.0, all doses",,infusion site pain,0%
CCN1CCN(Cc2ccc(Nc3ncc(F)c(-c4cc(F)c5nc6n(c5c4)[C@H](C)CCC6)n3)nc2)CC1,,patients with advanced solid tumours,"dose not given, phase Ia monotherapy",,decreased appetite grade ≥3,4.2%
CC(C)C[C@@H]1NC(=O)CNC(=O)[C@H](CC(N)=O)NC(=O)[C@H](CCCNC(=N)N)NC(=O)[C@H]([C@@H](C)O)NC(=O)[C@@H]2CSSC[C@@H]3NC(=O)[C@H]([C@@H](C)O)NC(=O)CNC(=O)CNC(=O)[C@H](CCCCN)NC(=O)[C@@H]4CSSC[C@H](NC(=O)[C@H]([C@@H](C)O)NC(=O)[C@H](CSSC[C@H](NC(=O)[C@H](C(C)C)NC(=O)[C@@H]5CCCN5C1=O)C(=O)NCC(=O)N[C@@H](CCC(=O)O)C(=O)N[C@@H]([C@@H](C)O)C(=O)N4)NC(=O)CNC(=O)[C@@H]1CCCN1C(=O)[C@H]([C@@H](C)O)NC(=O)[C@H](CC(N)=O)NC3=O)C(=O)N[C@@H](CO)C(=O)N[C@@H](Cc1c[nH]c3ccccc13)C(=O)N1CCC[C@H]1C(=O)N[C@@H](C(C)C)C(=O)N2,HPLC,ammonium bicarbonate 0.1 M,"180 µM, 14 days, pH 9.0, 37 °C, deamidation stability",,remaining peptide,60.9 ± 1.1%
NC(=O)[C@H]1CCN(c2ncnc(N)c2F)C[C@@H]1N1CCC[C@@H](Nc2cc(Cl)cc(C(F)(F)F)c2)C1=O,,B-cell malignancy patients,"oral, 41 mg twice daily, dose",,any grade ≥3 adverse event,80%
Clc1ccc(-c2ccc(Cl)cc2Cl)cc1,,fresh water,20 °C,,log K(PDMS-water),5.2 ± 0.05
Cn1ncc(-c2nc(N[C@H]3CC[C@H](N)CC3)ncc2Cl)c1CC1CC1,refers to: sepsis grade 3 or higher,human patients phase I,dose not given,,adverse event incidence,13%
COc1cc2c(Oc3ccc4[nH]c(C)cc4c3F)ccnc2cc1OCC1(N)CC1,,paediatric recurrent refractory sarcoma,8 mg/kg,,grade 1 or 2 Neutropenia,6.7%
C[C@@H]1OC(=O)NN=C1c1ccc(-c2ccc(F)cc2)c(C(F)(F)F)c1,"phase I trial, refers to: AST increased all grades",human patients,10 mg loading then 0.5 mg daily,,patients with adverse event,0%
CCC[C@@](N)(CO)CCc1ccc(OCCCCCC(C)C)cc1,,"dog, male hounds, plasma","oral capsule, 15 mg/kg, median",,Tmax,8 h
NCCCC[C@@H]1NC(=O)[C@@H](Cc2c[nH]c3ccccc23)NC(=O)[C@H](c2ccccc2)NC(=O)[C@@H]2C[C@@H](OC(=O)NCCN)CN2C(=O)[C@H](Cc2ccccc2)NC(=O)[C@H](Cc2ccc(OCc3ccccc3)cc2)NC1=O,,"healthy volunteers, female","1950 µg twice daily, 1.0 h, post hoc",,placebo-corrected QTcF change,6.2 ms
CC(=O)c1c(C)c2cnc(Nc3ccc(C4CCN(CCS(C)(=O)=O)CC4)cn3)nc2n(C2CCCC2)c1=O,,human plasma,,,plasma stability t1/2,> 6.67 h
COc1ncnn2ccc(-c3cnc4nc(C)n(Cc5nnc([C@@H](C)F)o5)c4c3)c12,,human patients,"oral, dose not given, all-grade adverse drug reaction",,incidence of Hyponatremia,21.4%
CC[C@H](C)[C@@H]1NC(=O)[C@@H]2CSSC[C@H](NC(=O)[C@H](CCCNC(=N)N)NC(=O)[C@@H]3CSSC[C@H](NC1=O)C(=O)N[C@@H]([C@@H](C)O)C(=O)N[C@@H](CCCNC(=N)N)C(=O)NCC(=O)N[C@@H](Cc1ccccc1)C(=O)N3)C(=O)N[C@@H](CC(C)C)C(=O)N[C@H]1CSSC[C@H](NC(=O)[C@H](C(C)C)NC(=O)CNC(=O)[C@H](CCCNC(=N)N)NC(=O)[C@H](CCCNC(=N)N)NC1=O)C(=O)N[C@@H](CCCNC(=N)N)C(=O)N2,,"Sprague-Dawley rat, female, lung","10 mg/kg, perivascular, peribronchiolar",direction not given,lung eosinophilic infiltration score,1 to 2
C[C@H]1COCCN1c1nc(NCc2cccnc2C(F)(F)F)c2cccnc2n1,,anaesthetized rat,"intravenous, 3 mg/kg",baseline: control,BP change,4.6%
CC(C)(c1ccccc1)c1cc(-n2nc3ccccc3n2)c(O)c(C(C)(C)c2ccccc2)c1,exposure assessment,"human, age 21-60 years","concentration not given, spray sunscreen, 95th percentile",,"daily dermal uptake, percentile",58.8 ng/kg body weight/day
CC1(C)[C@H](C=C(Cl)Cl)[C@H]1C(=O)OCc1cccc(Oc2ccccc2)c1,refers to: CYP2C9,"human, age 1 year, recombinant human CYP2C9",0.1 µM,,enzyme contribution to clearance,0.88%
O=C(O)CCCOc1ccc(F)cc1-c1cc(-c2ccccc2C(F)(F)F)n(-c2ccccc2)n1,refers to: CRE,"Crl:CD(SD) rats, male, blood","iv, 25 µg/kg, 14 days",,blood chemistry,0.37 ± 0.03 mg/dL
CN[C@H]1CC[C@@H](c2ccc(Cl)c(Cl)c2)c2ccccc21,,"CD-1 mouse, male, plasma","intraperitoneal, 30 mg/kg",,AUC(0-t),3220 ng·h/mL
CN1CCN(c2ccc(Nc3nccc(-c4ccc([N+](=O)[O-])cc4)n3)cc2C(F)(F)F)CC1,,zebrafish embryos,"25 µM, 5 d",,toxicity,79%
c1cc2ccc3cccc4ccc(c1)c2c34,,PDMS-water partitioning,PAH compilation,,literature range of log K,4.22 to 4.73 log units
O=S(=O)(Nc1ccccc1)c1ccc(NC(=S)Nc2ccccc2)cc1,,"female mice, liver","oral, 20 mg/kg daily 14 days",baseline: body weight,relative organ weight,4.83%
CC(C)C[C@@H]1NC(=O)CNC(=O)[C@H](CC(N)=O)NC(=O)[C@H](CCCNC(=N)N)NC(=O)[C@H]([C@@H](C)O)NC(=O)[C@@H]2CSSC[C@@H]3NC(=O)[C@H]([C@@H](C)O)NC(=O)CNC(=O)CNC(=O)[C@H](C(C)C)NC(=O)[C@@H]4CSSC[C@H](NC(=O)[C@H]([C@@H](C)O)NC(=O)[C@H](CSSC[C@H](NC(=O)[C@H](C(C)C)NC(=O)[C@@H]5CCCN5C1=O)C(=O)NCC(=O)N[C@@H](CCC(=O)O)C(=O)N[C@@H]([C@@H](C)O)C(=O)N4)NC(=O)CNC(=O)[C@@H]1CCCN1C(=O)[C@H](CCCCN)NC(=O)[C@H](CC(N)=O)NC3=O)C(=O)N[C@@H](CO)C(=O)N[C@@H](Cc1c[nH]c3ccccc13)C(=O)N1CCC[C@H]1C(=O)N[C@@H](C(C)C)C(=O)N2,HPLC,water,"180 µM, 14 days, 37 °C, deamidation stability",,remaining peptide,99.1 ± 0.2%
O=C(Nc1ccccc1)C1CCN(C(=O)Oc2cccnc2)CC1,refers to: disturbance in attention,healthy female humans,"concentration not given, safety set, all doses pooled",,TEAE incidence,13%
COc1ccnc(C(=O)N[C@H]2COC(=O)[C@H](Cc3ccccc3)[C@@H](OC(=O)C(C)C)[C@H](C)OC2=O)c1OCOC(=O)C(C)C,,bovine muscle,-18 °C,,storage stability,7 months
COc1cc2c(cc1OC)CN(CCc1ccc(NC(=O)c3cccc4c(=O)c5cccc(OC)c5[nH]c34)cc1)CC2,,"CD-1 mouse, male, plasma","intraperitoneal, 3 mg/kg",,Tmax,2 h
C[C@]1(CO)Cc2ncn(-c3ccc(C#N)c(Cl)c3)c2C(=O)O1,,"healthy Japanese adults, plasma","80 mg once daily, after first dose, multiple dose",,AUC(0-inf),28.3 µM·h
O[C@H]1CCCN[C@@H]1CCCn1cnc2c(Cl)c(Cl)ccc21,,"healthy CYP2D6 intermediate metabolizers, plasma","oral, dose not given, together with: pirfenidone",,AUClast geometric LS mean,1880 ng·h/mL
O=C(Nc1ccccc1)C1CCN(C(=O)Oc2cccnc2)CC1,psychotropic effects VAS,healthy women,20 mg,"baseline: pre-dose baseline, direction not given",change in Thoughts score,1
Clc1cc(Cl)c(-c2cc(Cl)c(Cl)cc2Cl)cc1Cl,,fresh water,"20 °C, SSP sampler, 100 µm",,log K(PDMS-water),6.37 ± 0.04
CCOc1cc(Oc2ccc(C(F)(F)F)cc2Cl)ccc1[N+](=O)[O-],,rat male,"3.25 mg/kg, 8 days",,final body weight,159 ± 3.8 g
OCc1cn(Cc2cccc(Cl)c2)c2ccccc12,,"F344 rat, male","oral, daily, two days",,MTD,100 mg/kg
CC(C)[C@H](N)C(=O)NCCCS(=O)(=O)O,,"human, APOE4 carrier Alzheimer's disease, plasma","oral, 265 mg twice daily, 2 weeks, steady state",,AUC(0-12h),11100 ng·h/mL
Clc1cc(Cl)c(-c2c(Cl)c(Cl)cc(Cl)c2Cl)cc1Cl,,fresh water,"20 °C, S100 sampler, 100 µm",,log K(PDMS-water),6.72 ± 0.09
Clc1ccc(Cl)c(-c2cc(Cl)ccc2Cl)c1,,"Sprague Dawley rat, spleen","intraperitoneal, 100 mg/kg, 3 weeks",baseline: vehicle,relative organ weight,no effect
